Assay results gathered from unrelated publications.
Compare with care: the assays were run in different laboratories. ± marks the error that the study gave.

COc1cc(Nc2ncc3c(n2)-c2ccc(Cl)cc2C(c2c(F)cccc2OC)=NC3)ccc1C(=O)O  Cmax (human, plasma; oral, 50 mg single, fed): 1300 nM
CNC(=O)c1ccc(-c2cnc3ncc(Cc4ccc5ncccc5c4)n3n2)cc1F  Cmax (mean) (human, mild hepatic impairment (Child-Pugh A), plasma; oral, 200 mg single dose): 1380 ng/mL
Cc1[nH]c(/C=C2\C(=O)Nc3ccccc32)c(C)c1CCC(=O)O  Cmax and AUC(0-t) decrease (human, Japanese patients, plasma; oral, dose not given, days 8 and 29, any dose level; relative to: first dose day 1): ~2 fold
CCOC(=O)[C@H](C)C[C@@H](Cc1ccc(-c2ccccc2)cc1)NC(=O)CCC(=O)O  Cmax at steady state (male human, plasma; oral, dose not given, day 8, adjusted geometric mean, together with: sildenafil): 2080 ng/mL
coproporphyrin I  Cmax ratio (refers to: compound endogenous; human, plasma; together with: rosuvastatin and finerenone; relative to: with over without finerenone): 101%
COc1cccc(-c2ccc(NC(=O)C3=C(C(=O)O)CCC3)c(F)c2)c1  Cmax accumulation ratio (male healthy human, plasma; oral, 50 mg daily, day 13-14, pre-dosed; relative to: day 0-1): 1.48
CCOc1c([C@H](C)n2nc(C)c3c(N)ncnc32)cc(Cl)c(F)c1[C@@H]1CNC(=O)C1  Cmax geometric mean (healthy fasted humans, plasma; oral, 20 mg): 1630 nM
COC(=O)c1ccc2c(c1)NC(=O)/C2=C(\Nc1ccc(N(C)C(=O)CN2CCN(C)CC2)cc1)c1ccccc1  Cmax ratio (human, healthy, plasma; oral, 150 mg, together with: rifampicin 600 mg; relative to: alone): 59.8%
CC(C)(C)OC[C@@H]1C(=O)NCCN1C(=O)C[C@H](N)Cc1cc(F)c(F)cc1F  Cmax steady state (human, plasma; oral, 5 mg once daily, together with: glimepiride 4 mg): 6.9 ± 1.5 ng/mL
CCCCC(=O)N(Cc1ccc(-c2ccccc2-c2nnn[nH]2)cc1)[C@H](C(=O)O)C(C)C  Cmax at steady state (male human, plasma; oral, 400 mg, day 7, alone, adjusted geometric mean): 4990 ng/mL
CN(C)C/C=C/C(=O)Nc1cc2c(Nc3ccc(F)c(Cl)c3)ncnc2cc1O[C@H]1CCOC1  Cmax at steady state (human, plasma; oral, 20 mg once daily, day 27, geometric mean): 24.6 ng/mL
CC(C)(Sc1ccncc1-c1ccc(C#N)c2ccccc12)C(=O)O  Cmax ratio (human, male, plasma; oral, 10 mg, together with: allopurinol 300 mg; relative to: combination over alone): 98.7%
CO[C@H]1C[C@@H]2CC[C@@H](C)[C@@](O)(O2)C(=O)C(=O)N2CCCC[C@H]2C(=O)O[C@H]([C@H](C)C[C@@H]2CC[C@@H](OCCO)[C@H](OC)C2)CC(=O)[C@H](C)/C=C(\C)[C@@H](O)[C@@H](OC)C(=O)[C@H](C)C[C@H](C)/C=C/C=C/C=C/1C  Cmax ratio (healthy human adults, blood; together with: ritonavir-containing 3D regimen; relative to: with over without regimen): 4.74
Oc1ncnc2[nH]ncc12  Cmax ratio (human, male, plasma; oral, 10 mg, together with: allopurinol 300 mg; relative to: combination over alone): 133%
COCCCCn1c(C(=O)N(CC(C)C)[C@@H]2CNC[C@H](C(=O)N3CCOCC3)C2)nc2ccccc21  Cmax (human, elderly, plasma; oral, 80 mg once daily, day 1, mean): 959 ng/mL
COC(=O)c1ccc2c(c1)NC(=O)/C2=C(\Nc1ccc(N(C)C(=O)CN2CCN(C)CC2)cc1)c1ccccc1  Cmax steady state (human moderate liver impairment, plasma; oral, 200 mg twice daily, geometric mean): 142 ng/mL
CC[C@@H]1C(=O)N(C)c2cnc(Nc3ccc(C(=O)N[C@H]4CC[C@H](N5CCN(CC6CC6)CC5)CC4)cc3OC)nc2N1C(C)C  Cmax geometric mean (human, plasma; intravenous infusion, 350 mg over 2 h, first infusion): 675 ng/mL
COc1ccc2cc3[n+](cc2c1OC)CCc1cc2c(cc1-3)OCO2  Cmax at steady state (human; oral, 29.8 mg every 8 h): ~0.59 nM
COc1cc(N2CCC(N3CCN(C)CC3)CC2)ccc1Nc1ncc(Cl)c(Nc2ccccc2P(C)(C)=O)n1  Cmax (healthy humans, plasma; oral, 180 mg, alone, single dose): 863 ng/mL
O=C(NC[C@H]1CN(c2ccc(N3CCOCC3=O)cc2)C(=O)O1)c1ccc(Cl)s1  Cmax increase (human, moderate renal impairment, plasma; oral, 10 mg, together with: erythromycin at steady state; relative to: same subjects, compound alone): ~21%
CC(C)c1nc(N(C)S(C)(=O)=O)nc(-c2ccc(F)cc2)c1/C=C/[C@@H](O)C[C@@H](O)CC(=O)O  Cmax ratio (human fed, plasma; oral, 20 mg single dose, together with: ziritaxestat 600 mg once daily; relative to: with over without ziritaxestat): 2.4
CCCC(CCC)C(=O)O  Cmax breakpoint (regression tree, refers to: neurological adverse events; human, plasma; intravenous): > 256000 ng/mL
C/C=C1\NC(=O)[C@H]2CSSCC/C=C/[C@H](CC(=O)N[C@H](C(C)C)C(=O)N2)OC(=O)[C@H](C(C)C)NC1=O  Cmax and AUC(0-t) (human patients, plasma; dose not given, together with: tenalisib; relative to: compound alone): no effect
CCn1c(C(=O)c2cc(C)cc(C#N)c2)c(C(C)C)c(=O)[nH]c1=O  Cmax at steady state (healthy humans, plasma; oral, 75 to 600 mg once daily, 7 days, range of dose-group means): 385 to 1100 ng/mL
CC(C)c1nc(N(C)S(C)(=O)=O)nc(-c2ccc(F)cc2)c1/C=C/[C@@H](O)C[C@@H](O)CC(=O)O  Cmax ratio (human, plasma; oral, together with: finerenone simultaneous; relative to: with over without finerenone): 111%
CCOc1cc([C@@H](CS(C)(=O)=O)N2C(=O)c3cccc(NC(C)=O)c3C2=O)ccc1OC  Cmax ratio (healthy humans, plasma; 30 mg, together with: multiple oral rifampicin doses; relative to: with rifampicin over alone): 57%

Some of these lines once more:
O=C(NC[C@H]1CN(c2ccc(N3CCOCC3=O)cc2)C(=O)O1)c1ccc(Cl)s1  Cmax increase (human, moderate renal impairment, plasma; oral, 10 mg, together with: erythromycin at steady state; relative to: same subjects, compound alone): ~21%
CC(C)c1nc(N(C)S(C)(=O)=O)nc(-c2ccc(F)cc2)c1/C=C/[C@@H](O)C[C@@H](O)CC(=O)O  Cmax ratio (human fed, plasma; oral, 20 mg single dose, together with: ziritaxestat 600 mg once daily; relative to: with over without ziritaxestat): 2.4
CCCC(CCC)C(=O)O  Cmax breakpoint (regression tree, refers to: neurological adverse events; human, plasma; intravenous): > 256000 ng/mL
